# Experimental data collected from several papers.
# Protocols differ between the studies behind these lines. Values joined by “and” are separate records of one study, mostly repeats; a detail may differ.
# Nuclear receptor subfamily 2 group C member 2 ligand-binding domain: Nuclear receptor subfamily 2 group C member 2, ligand-binding domain (Homo sapiens, UniProt P49116)
SMILES,tested on,assay,system,conditions,how to read,endpoint,result
Nc1ncnc2c1ncn2[C@@H]1O[C@H](COP(=O)(O)CP(=O)(O)OP(=O)(O)O)[C@@H](O)[C@H]1O,"P2X purinoceptor 1 (P2RX1, Homo sapiens, UniProt P51575, K136W)",saturation binding,HEK293,25 nM,,specific binding,1270 CCPM and 1700 CCPM
Nc1ncnc2c1ncn2[C@@H]1O[C@H](COP(=O)(O)OP(=O)(O)OP(=O)(O)O)[C@@H](O)[C@H]1O,"ATP-sensitive inward rectifier potassium channel 1 (Rattus norvegicus, UniProt P35560)","channel activity, inhibitor, inside-out patch clamp",,pH 7.2,,concentration for full inhibition,0.6 to 0.7 mM
CC(C)C[C@@H]1NC(=O)[C@H](C(C)C)NC(=O)CNC(=O)[C@H](CC(N)=O)NC(=O)[C@@H]2CCCN2C(=O)[C@H](Cc2ccc(O)cc2)NC(=O)[C@H](CCCNC(=N)N)NC(=O)[C@H](Cc2ccccc2)NC(=O)[C@@H](NC(=O)[C@H](CCCCN)NC(=O)[C@H](C)NC(=O)[C@H](CO)NC(=O)[C@H](C)NC(=O)[C@@H](N)Cc2ccc(O)cc2)CSSC[C@@H](C(=O)N[C@H](C(N)=O)[C@@H](C)O)NC(=O)[C@H](C)NC1=O,"Alpha-2-HS-glycoprotein, asialo (AHSG, Bos taurus, UniProt P12763)","binding, isothermal titration calorimetry",,"pH 7.0, 25 °C, together with: asialofetuin",,-ΔG,5.71 kcal/mol
Nc1ncnc2c1ncn2[C@@H]1O[C@H](COP(=O)(O)OP(=O)(O)OP(=O)(O)O)[C@@H](O)[C@H]1O,"P2X purinoceptor 7 (P2rx7, Rattus norvegicus, UniProt Q64663, I214A/R125A)","ion current, agonist, two-electrode voltage clamp",Xenopus laevis oocytes,1.1 µM,baseline: highest concentration response,normalized current,0
O=C(COP(=O)(O)O)[C@@H](O)[C@H](O)[C@H](O)COP(=O)(O)O,"Desmoplakin (DSP, Homo sapiens, UniProt P15924)",thermal proteome profiling,HepG2 cell lysate,"concentration not given, 57 over 37 °C, mean",baseline: compound over control,thermal stability ratio,0.537
N[C@@H](CCO)C(=O)O,"Neutral amino acid transporter B(0) (Slc1a5, Rattus norvegicus, UniProt D3ZJ25)","anion leak current, substrate, whole-cell patch clamp",HEK293 transfected,,,Km,10 µM
Nc1ccccc1NC(=O)c1ccc(CNC(=O)OCc2cccnc2)cc1,OCI-Ly1,,,"0.1 µM, 120 h",,viability,184%
CC[C@@H]1[C@H](F)C(=O)N[C@@H]1COc1nccc2cc(C(N)=O)c(OC)cc12,"Serine/threonine-protein kinase MARK2 (MARK2, Homo sapiens, UniProt Q7KZI7)","ATP-site probe binding, ActivX profiling",THP-1 cell lysate,"0.01 mM, Lys2 site",,inhibition,12.7%
CC(Nc1nc(N2CCCC2)nc2ccccc12)c1ccccc1 (centres unmarked),"Exportin-1 (XPO1, Homo sapiens, UniProt O14980)","nuclear export, high content imaging",HeLa Kyoto reporter,"0.1 µM, 2 h",,cells with nuclear reporter,6.6% and 2.81% and 2.3%
Nc1nc2c(ncn2[C@@H]2O[C@H](COP(=O)(O)O)[C@@H](O)[C@H]2O)c(=O)[nH]1,"GUK1 (Homo sapiens, UniProt Q16774)","enzyme activity, NADH-coupled",,125 µM,,reaction rate,36 s⁻¹ and 48.3 s⁻¹ and 42.9 s⁻¹
O=C1OC(c2ccccc2)=N/C1=C\c1ccc(O)cc1,"Pancreatic alpha-amylase (Homo sapiens, UniProt P04746)","inhibitor, Lineweaver-Burk",,"300 ppm, together with: starch substrate",,Km,1940 µM
CC(C(=O)Nc1cccc(/N=C/c2c(O)ccc3ccccc23)c1)c1ccccc1 (centres unmarked),OCI-Ly1,,,"1 µM, 120 h",,viability,146%
C=C(c1ccc(C(=O)O)cc1)c1cc2c(cc1C)C(C)(C)CCC2(C)C,Nuclear receptor subfamily 2 group C member 2 ligand-binding domain,SPR imaging,,600 nM,,koff,2.82e-05 s⁻¹
COc1cccc(OC[C@@H]2CN(CC(=O)N3CCc4ccccc43)CCO2)c1,"5-hydroxytryptamine receptor 4 (HTR4, Homo sapiens, UniProt Q13639)",radioligand binding,,concentration not given,,inhibition,10.9%
NCCS(=O)(=O)O,"Sodium- and chloride-dependent taurine transporter (SLC6A6, Homo sapiens, UniProt P31641, S402A)","binding, microscale thermophoresis",,"62.5 µM, room temperature, together with: 50 nM labelled protein",higher = more binding,normalised MST signal,-0.0169
COCCC(=O)N1CCC(Oc2ccccc2)C1 (centres unmarked),"DDB1- and CUL4-associated factor 1 (DCAF1, Homo sapiens, UniProt Q9Y4B6)","binding, affinity selection mass spectrometry",,,baseline: other proteins in batch,log fold enrichment,-0.111
CC1CC(OC(=O)C(O)c2ccccc2)CC(C)(C)C1 (centres unmarked),Nuclear receptor subfamily 2 group C member 2 ligand-binding domain,SPR imaging,,600 nM,,koff,4.19e-06 s⁻¹

# A few entries again:
SMILES,tested on,assay,system,conditions,how to read,endpoint,result
O=C(COP(=O)(O)O)[C@@H](O)[C@H](O)[C@H](O)COP(=O)(O)O,"Desmoplakin (DSP, Homo sapiens, UniProt P15924)",thermal proteome profiling,HepG2 cell lysate,"concentration not given, 57 over 37 °C, mean",baseline: compound over control,thermal stability ratio,0.537
Nc1ncnc2c1ncn2[C@@H]1O[C@H](COP(=O)(O)OP(=O)(O)OP(=O)(O)O)[C@@H](O)[C@H]1O,"P2X purinoceptor 7 (P2rx7, Rattus norvegicus, UniProt Q64663, I214A/R125A)","ion current, agonist, two-electrode voltage clamp",Xenopus laevis oocytes,1.1 µM,baseline: highest concentration response,normalized current,0
